Results gathered from unrelated publications.
Each numbered part is a random draw from the data of one study; scales do not carry over between parts. Substitutions count along the parent as printed.

Sample 1 — technique: RNA Bind-n-Seq; form: RNA; medium: in vitro; tested at: 200 nM; setting: whole 134-nt RNA, ends assumed; with: 150 mM KCl; baseline: input library; reading: higher = stronger binding
Target: Ras GTPase-activating protein-binding protein 1, full length (G3BP1, Homo sapiens, UniProt Q13283)
Chain of UniProt Q13283 (whole entry, looked up): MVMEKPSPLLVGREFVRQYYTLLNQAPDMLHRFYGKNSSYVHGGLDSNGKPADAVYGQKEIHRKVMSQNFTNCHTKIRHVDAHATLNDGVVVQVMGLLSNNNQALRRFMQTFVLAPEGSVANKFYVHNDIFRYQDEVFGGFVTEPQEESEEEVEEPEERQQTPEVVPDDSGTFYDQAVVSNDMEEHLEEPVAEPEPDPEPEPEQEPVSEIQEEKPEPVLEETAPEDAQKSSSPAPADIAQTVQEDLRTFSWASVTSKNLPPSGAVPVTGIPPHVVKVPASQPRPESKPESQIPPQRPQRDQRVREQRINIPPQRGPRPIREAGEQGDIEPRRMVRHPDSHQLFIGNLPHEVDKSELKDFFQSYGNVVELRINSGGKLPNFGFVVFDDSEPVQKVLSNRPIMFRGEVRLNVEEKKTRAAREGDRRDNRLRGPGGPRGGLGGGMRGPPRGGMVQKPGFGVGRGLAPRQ
All sequences stand within: GGGAGUUCUACAGUCCGACGAUC … UGGAAUUCUCGGGUGUCAAGG
Oligonucleotide | log2 enrichment
CCUCAAGUCCUGUGCUACACAUCGUAUGUACCGAAUCGGUUUGGUUUGGAGGAAAGUAUUAUGUUACGCCGUUCGGAUCUGCACUUCCAG | -0.0829
UCCCUGUCCAAGCUGAGCGCCCUCAACGAGAGCCUUGCUCAGGACAAGUUGGAUCUGAACUGCCUUGUCACCCAGGUACACUGUGCACCU | 0.848
UUUGUCCCUGCUCAGGAUGAGACUUCUGUGAGCAGCGAGGAUUUUGAUAUGAGCGACUCCACAUGGAUGUCAGCUGACCCGCACCUGGCC | -0.184
ACAAAGCAGGUGGGCAUCUUUGGGAAGUGGGGCAAGGGGGGGAUAGGGAGGGGGGUAACACUUUGGGAACAGGUGGUCCCAGGUCGUUUC | 1.51
UCAAGUCCUGUGCUACACAUCGUAUGUACCGAAUCGGGUUUGGGAGGGAAAGGGAAAGUAUUAUGUUACGCCGUUCGGAUCUGCACUUCC | 0.966
AGUCCUGUGCUACACAUCGUAUGUACCGAAUCGGGUUUUUGGGAAAGGGAAAAAGGGAAAGUAUUAUGUUACGCCGUUCGGAUCUGCACU | -0.51
GCGGGAAGUAAAAACAAAUGGAAAUGCUUCGGAUAGUGGCAGGGGUGGGGGUUGCUAAGGAAAGGGUGGGAUGGGAGUGGGUAAAGAGUU | 1.22
ACCAUGCAGGUGGGCAUAUUUGGGAAGUGGGGCAAGGGGGGGAUAGGGAGGGGGGUAACACUUUGGGAACAGGUGGUCCCAGGUCGUUUC | 1.36
UCCUGUGCUACACAUCGUAUGUACCGAAUCAAACCCCCAAAUUUUUAAAUUUUUUUAAAAAAGUAUUAUGUUACGCCGUUCGGAUCUGCA | 0.245
GCAGGAAGUAAAAACAAAUGGAAAUGCUUCGGAUAGUGGCAGGGGUGGGGGUUGCUAAGGAUAGGGUGGGAUGGGAGUGGGUAAAGAGUU | 0.746
AGUCCUGUGCUACACAUCGUAUGUACCGAAUCGGGGAAAGGGGAAAAAGGGGUGGGGAAAGUAUUAUGUUACGCCGUUCGGAUCUGCACU | 0.445
UUUCUGUGUGCUUAGGUGCCCGAGCUACUGAGGGUCUAAGUCCGGGCAGCCGAAGAGUGUGGUAGGUAACGGUCCUCAGCGCAAGGGUCA | -0.448
UCCUGUGCUACACAUCGUAUGUACCGAAUCGGGGUUUUUUGGUUUUUUGGUUUUUUGGGGAAAGUAUUAUGUUACGCCGUUCGGAUCUGC | -0.534
ACCAUGCACGUGGGCAUCUUUGGGAAGUGGGGCAAGGGGGGGAUAGGGAGGGGGGUAACACUUUGGGAACAGGUGGUCCCAGGUCGUUUC | 1.11

Sample 2 — target: CCNB1, cyclin fold, Cln2 fusion (human); technique: yeast growth competition, sequencing; medium: yeast; setting: strong parent motif; baseline: not given; reading: higher = stronger binding
Starting sequence: E2F1 docking peptide (human); PPVKRRLDFETDH
Substitution | normalised enrichment score
PPVKRRLDFETIH [D12I] | 4.96
PPVKRRLDDETDH [F9D] | -0.261
PPVKRREDFETDH [L7E] | 0.381
PPVKRRLDFERDH [T11R] | 4.6
PPVKRRLDFETMH [D12M] | 4.93
PPVKRRADFETDH [L7A] | 0.342
PPVKRRLDFRTDH [E10R] | 3.5
PPKKRRLDFETDH [V3K] | 0.748
PPVKLRLDFETDH [R5L] | 2.49
PPVKRRLDMETDH [F9M] | 1.17
PPWKRRLDFETDH [V3W] | 2.66
PPVKRRLDFEADH [T11A] | 4.97
PNVKRRLDFETDH [P2N] | 5.11
PPRKRRLDFETDH [V3R] | 0.387
PPVKRRLDFEHDH [T11H] | 5.24
PPVKRRGDFETDH [L7G] | -0.266
PPVARRLDFETDH [K4A] | 4.61
PPVKRRCDFETDH [L7C] | 0.616

Sample 3 — technique: DHFR PCA, deep sequencing; medium: yeast; with: (+)-ABA 0.11 µM; baseline: wild-type fitted maximum; reading: higher = stronger binding
Target: ABI1, truncated, D143A, DHFR fusion (Arabidopsis thaliana)
Setting: methotrexate growth selection, single substitutions
Starting sequence: PYL1, truncated, DHFR fusion (Arabidopsis thaliana); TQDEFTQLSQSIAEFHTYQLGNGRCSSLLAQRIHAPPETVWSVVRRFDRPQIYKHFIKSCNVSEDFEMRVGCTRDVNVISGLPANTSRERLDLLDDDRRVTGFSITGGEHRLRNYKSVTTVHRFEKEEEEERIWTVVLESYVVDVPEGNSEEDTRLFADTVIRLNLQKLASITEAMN
Substitution | relative binding score [%]
S27Y | 9.92
D159N | 22.5
T6N | 36.3
T86W | 75.1
V136C | 0.888
V100N | -10
F66R | 0.47
D92P | -10.3
R111M | 18.7
L112Q | -1.77
T101A | 7.24
E125S | 45.8

Single results of other studies
Substance | target | test | test system | conditions | scale | measurement | result
PhoQ, residues 284 288 289 292 302 303 SQSLSM | PhoP, residues 12 14 15 18 19 IQFRS (Escherichia coli, UniProt P23836) | Sort-seq, refers to: YFP reporter | E. coli | PhoQ-PhoP variant library, with: 10 µM Mg2+ | baseline: high Mg2+ state, higher = stronger signaling | fold induction | 16.8

Some of these lines once more (sample 2):
Substitution | normalised enrichment score
PNVKRRLDFETDH [P2N] | 5.11
PPVKRRADFETDH [L7A] | 0.342
PPWKRRLDFETDH [V3W] | 2.66
PPVKRRLDFETMH [D12M] | 4.93
PPVKRRGDFETDH [L7G] | -0.266
